Results from different studies.
Compare with care: the assays were run in different laboratories. Numbers after ± are the reported error. ≈ marks a conversion by molar mass, not a printed value.
Organism: Staphylococcus aureus

`CC(=O)N[C@@H](CCCCN)C(=O)N1CCC[C@H]1C(=O)N[C@H](C(=O)N[C@@H](Cc1ccccc1)C(=O)N[C@@H](CCC(N)=O)C(=O)N[C@@H](Cc1ccccc1)C(=O)N[C@@H](CC(C)C)C(=O)N[C@@H](Cc1ccccc1)C(=O)N[C@@H](Cc1c[nH]cn1)C(=O)N[C@@H](CCC(=O)O)C(N)=O)C(C)C` has a PI-permeable cells of 30.2% (flow cytometry; USA300, hydrogel; concentration not given, 4 h, pH 5.5, 37 °C).
`O=C(Oc1cccccc1=O)c1ccc([N+](=O)[O-])cc1` gave an MIC80 of 16.5 µM (≈ 4.48 µg/mL) (microbial growth, broth dilution; ATCC29213).
With `CC[C@H](C)[C@H](NC(=O)[C@H](CC1CCCCC1)NC(=O)[C@H](Cc1ccccc1)NC(=O)[C@@H](N)CCCN)C(=O)N[C@H](Cc1ccccc1)C(=O)N[C@@H](Cc1cn(Cc2ccccc2)cn1)C(N)=O` the IC50 was greater than 20 µg/mL (bacterial growth; ATCC 29213).
With `COc1c(C)c(OS(=O)(=O)c2ccccc2)c(C)c(O)c1C(=O)/C=C/c1ccccc1` the MBC was greater than 5000 µg/mL (microbial killing, broth dilution; ATCC25923).
For `Cc1ccc(C(=O)Sc2cccccc2=O)cc1`, the MIC80 was 13.2 µM (≈ 3.38 µg/mL) (microbial growth, broth dilution; ATCC29213).
With `CC[C@H](C)[C@H](NC(=O)[C@H](CC1CCCCC1)NC(=O)[C@@H]1CCCN1C(=O)[C@@H](N)CCCN)C(=O)N[C@H](Cc1ccccc1)C(=O)N[C@@H](Cc1cn(Cc2ccccc2)cn1)C(N)=O` the IC50 was greater than 20 µg/mL (ATCC 33591, methicillin-resistant).
`C=CS(=O)(=O)NCCCCOCc1cn(CCCCNS(=O)(=O)C=C)n[n+]1C` has an IC50 of greater than 100 µM (growth, turbidity OD600; 24 h).
For `CC(C)C1=CC2=CCC3C(C)(C(=O)OCCC[N+](C)(C)C)CCCC3(C)C2CC1` (centres unmarked), the inhibition zone was 14 mm (microbial growth, disc diffusion; ATCC29213; 15.6 µg/disc, 24 h).
For `Oc1cccc2c1[nH]c1c(C3=CC4(O)CCC=CCCCCN5CCC3C3(CC6C=CCCCCN6C43)C5)nccc12` (single isomer, unassigned; (+)), the IC50 was 0.82 ± 0.04 µg/mL (growth; ATCC 43300, MRSA).
With `CC(CCCOC(=O)CCC[N+](C)(C)C)C1CCC2C3CCC4CC(OC(=O)CCC[N+](C)(C)C)CCC4(C)C3CC(OC(=O)CCC[N+](C)(C)C)C12C` (centres unmarked) the inhibition zone was 29 mm (microbial growth, disc diffusion; ATCC29213; 250 µg/disc, 24 h).
For `COc1c(C)c(OC(=O)c2ccccc2)c(C)c(OC(=O)c2ccccc2)c1C(=O)/C=C/c1ccccc1`, the inhibition zone was 9 mm (microbial growth, well diffusion; ATCC25923; 5 µg/mL).
`C=C(C)C(=O)NCCCCCCCCOCc1cn(CCCCCCCCNC(=O)C(=C)C)n[n+]1C` has an IC50 of greater than 100 µM (growth, turbidity OD600; 24 h).
The MBC of `COc1c(C)c(OS(=O)(=O)c2ccccc2)c(C)c(OS(=O)(=O)c2ccccc2)c1C(=O)/C=C/c1ccccc1` is reported as greater than 5000 µg/mL (microbial killing, broth dilution; ATCC25923).
`COc1ccc2cc3[n+](cc2c1OC)CCc1cc2c(cc1-3)OCO2.[Cl][Fe-]([Cl])([Cl])[Cl]` gave an MBC of 400 µM (24 h, 37 °C).
For `CCCC[C@H](NC(=O)[C@@H](N)CCCN)C(=O)N[C@@H](CC1CCCCC1)C(=O)N[C@H](C(=O)N[C@H](Cc1ccccc1)C(=O)N[C@@H](Cc1cn(Cc2ccccc2)cn1)C(N)=O)[C@@H](C)CC`, the IC50 was greater than 20 µg/mL (bacterial growth; ATCC 29213).
For `N=C(N)NCCC[C@@H]1NC(=O)[C@H](CCCNC(=N)N)NC(=O)[C@@H](C(c2ccccc2)c2ccccc2)NC(=O)[C@H](Cc2c[nH]c3ccccc23)NC(=O)[C@@H](C(c2ccccc2)c2ccccc2)NC(=O)[C@@H](CCCNC(=N)N)NC(=O)[C@@H](CCCNC(=N)N)NC1=O`, the biofilm reduction was 41 to 49% (MRSA ATCC BAA-1556; MIC, 24 h, pre-formed biofilm).
`CC[C@H](C)[C@H](NC(=O)[C@H](CC1CCCCC1)NC(=O)[C@@H](CC(C)C)NC(=O)[C@@H](N)CCCN)C(=O)N[C@H](Cc1ccccc1)C(=O)N[C@@H](Cc1cn(Cc2ccccc2)cn1)C(N)=O` gave an IC50 of greater than 20 µg/mL (ATCC 33591, methicillin-resistant).
The MBC of `COc1c(C)c(OCc2ccccc2)c(C)c(OCc2ccccc2)c1C(=O)/C=C/c1ccccc1` is reported as greater than 5000 µg/mL (microbial killing, broth dilution; ATCC25923).
`CC(CCCOC(=O)CCC[N+](C)(C)C)C1CCC2C3CCC4CC(OC(=O)CCC[N+](C)(C)C)CCC4(C)C3CCC12C` (centres unmarked) gave an inhibition zone of 13 mm (microbial growth, disc diffusion; ATCC29213; 62.5 µg/disc, 24 h).
For `C=C1CN(S(=O)(=O)c2ccc([N+](=O)[O-])cc2)CC2Nc3c(F)cc(Br)cc3C12CCNS(=O)(=O)c1ccc(Cl)cc1` (centres unmarked), “minimum resensitizing concentration” read greater than 32 µg/mL (MRSA ATCC BAA-44; together with: amoxicillin/clavulanic acid).
`CC(CCCOC(=O)CCC[N+](C)(C)C)C1CCC2C3C(OC(=O)CCC[N+](C)(C)C)CC4CC(OC(=O)CCC[N+](C)(C)C)CCC4(C)C3CC(OC(=O)CCC[N+](C)(C)C)C12C` (centres unmarked) gave an inhibition zone of 10 mm (microbial growth, disc diffusion; ATCC29213; 31.2 µg/disc, 24 h).
`C=CS(=O)(=O)NCCCCCCCCOCc1cn(CCCCCCCCNS(=O)(=O)C=C)n[n+]1C` gave an IC50 of greater than 100 µM (growth, turbidity OD600; 24 h).
`CC[C@H](C)[C@H](NC(=O)[C@H](CC1CCCCC1)NC(=O)[C@@H](NC(=O)[C@@H](N)CCCN)c1ccccc1)C(=O)N[C@H](Cc1ccccc1)C(=O)N[C@@H](Cc1cn(Cc2ccccc2)cn1)C(N)=O` gave an IC50 of greater than 20 µg/mL (ATCC 33591, methicillin-resistant).
For `C=C(C)C(=O)NCCCCOCc1cn(CCCCNC(=O)C(=C)C)n[n+]1C`, the IC50 was greater than 100 µM (growth, turbidity OD600; 24 h).
With `CC(C)c1ccc2c(c1)CCC1C(C)(CN(CC(O)C[N+](C)(C)C)CC(O)C[N+](C)(C)C)CCCC21C` (centres unmarked) the inhibition zone was 18 mm (microbial growth, disc diffusion; ATCC29213; 250 µg/disc, 24 h).
`C=CC(=O)NCCCCCCCCCCOCc1cn(CCCCCCCCCCNC(=O)C=C)nn1` gave an IC50 of greater than 100 µM (growth, turbidity OD600; 24 h).
`CC[C@H](C)[C@H](NC(=O)[C@H](CCCN)NC(=O)[C@H](CC(N)=O)NC(=O)[C@H](Cc1c[nH]c2ccccc12)NC(=O)[C@H](Cc1ccccc1)NC(=O)[C@H](CCCN)NC(=O)[C@H](CCCCNC(=N)N)NC(=O)[C@H](CC(C)C)NC(=O)[C@H](Cc1c[nH]c2ccccc12)NC(=O)[C@H](CCCN)NC(=O)[C@H](CCCCNC(=N)N)NC(=O)[C@H](CC(C)C)NC(=O)CNC(C)=O)C(=O)N[C@@H](CCCN)C(=O)N[C@@H](CCCCNC(=N)N)C(N)=O` — result for “MIC fold change”: 1 fold (concentration not given, together with: KCl 4.5 mM; relative to: no added salt).
`C=CS(=O)(=O)NCCCCCCOCc1cn(CCCCCCNS(=O)(=O)C=C)nn1` gave an IC50 of greater than 100 µM (growth, turbidity OD600; 24 h).
`C=C(NC(=O)c1csc(-c2nc3c(cc2O)-c2nc(cs2)C(=O)NC(C(C)O)C(=O)NC(=C(C)OC)c2nc(cs2)C(=O)NC2c4nc(cs4)C(=O)NC(COC(=O)c4c5c6c(cccc6n4O)COC(=O)C(OC4CC(C)(O)C(N(C)C)C(C)O4)C2OC5)c2nc-3cs2)n1)C(N)=O` (centres unmarked) has an MIC50 of 0.0625 µg/mL (≈ 0.0435 µM) (MRSA, 10 isolates; serum 75%).

For quick reference, copied from above:
For `N=C(N)NCCC[C@@H]1NC(=O)[C@H](CCCNC(=N)N)NC(=O)[C@@H](C(c2ccccc2)c2ccccc2)NC(=O)[C@H](Cc2c[nH]c3ccccc23)NC(=O)[C@@H](C(c2ccccc2)c2ccccc2)NC(=O)[C@@H](CCCNC(=N)N)NC(=O)[C@@H](CCCNC(=N)N)NC1=O`, the biofilm reduction was 41 to 49% (MRSA ATCC BAA-1556; MIC, 24 h, pre-formed biofilm).
`CC[C@H](C)[C@H](NC(=O)[C@H](CC1CCCCC1)NC(=O)[C@@H](CC(C)C)NC(=O)[C@@H](N)CCCN)C(=O)N[C@H](Cc1ccccc1)C(=O)N[C@@H](Cc1cn(Cc2ccccc2)cn1)C(N)=O` gave an IC50 of greater than 20 µg/mL (ATCC 33591, methicillin-resistant).
The MBC of `COc1c(C)c(OCc2ccccc2)c(C)c(OCc2ccccc2)c1C(=O)/C=C/c1ccccc1` is reported as greater than 5000 µg/mL (microbial killing, broth dilution; ATCC25923).
`CC(CCCOC(=O)CCC[N+](C)(C)C)C1CCC2C3CCC4CC(OC(=O)CCC[N+](C)(C)C)CCC4(C)C3CCC12C` (centres unmarked) gave an inhibition zone of 13 mm (microbial growth, disc diffusion; ATCC29213; 62.5 µg/disc, 24 h).
